{"data": "Assay results pooled from the literature", "note": "Numbered parts are unrelated; each lists some results of a single study."}
{"data": "Sample 1", "target": "Interferon regulatory factor 3, full length, phosphomimetic (IRF3, Homo sapiens, UniProt Q14653, residues 1-427, S386D/S396D/S398D/S402D/T404D/S405D)", "technique": "protein-binding microarray", "form": "double-stranded DNA, one strand shown", "matrix": "in vitro", "concentration": "2540 nM top", "notes": "60-bp whole probe", "with": "salmon DNA 0.4 mg/ml", "baseline": "random background probes", "direction": "higher = stronger binding", "shared flanks, not repeated": "GCCTAGCAC … GTCTTGATTCGCTTGACGCTGCTG", "Target sequence (chain)": "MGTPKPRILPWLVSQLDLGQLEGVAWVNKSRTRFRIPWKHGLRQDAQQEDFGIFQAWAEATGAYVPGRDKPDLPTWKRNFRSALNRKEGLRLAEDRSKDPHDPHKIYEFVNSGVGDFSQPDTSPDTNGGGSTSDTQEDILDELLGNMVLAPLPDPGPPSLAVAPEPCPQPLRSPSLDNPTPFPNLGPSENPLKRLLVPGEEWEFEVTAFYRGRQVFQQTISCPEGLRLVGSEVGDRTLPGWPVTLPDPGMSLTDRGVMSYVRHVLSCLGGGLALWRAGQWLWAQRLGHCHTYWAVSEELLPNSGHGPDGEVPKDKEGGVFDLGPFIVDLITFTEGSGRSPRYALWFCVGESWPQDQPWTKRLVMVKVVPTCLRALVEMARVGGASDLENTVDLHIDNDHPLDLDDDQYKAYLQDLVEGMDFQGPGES"}
{"Sequence": "TTAGATTTCAGTAGCGATTAGTGCTAG", "fitted relative affinity [z-score]": 0.387}
{"Sequence": "TTAGGTATCGACACTGGGTTTGTGCTA", "fitted relative affinity [z-score]": 0.0529}
{"Sequence": "ACAAATACAAGTTTCTCCTTGTGCTAG", "fitted relative affinity [z-score]": 1.01}
{"Sequence": "GACGGTTTCGGGACTGGGTACGTGCTA", "fitted relative affinity [z-score]": 4.73}
{"Sequence": "CTAGATCTCAGACTGGATTAGTGCTAG", "fitted relative affinity [z-score]": 0.0742}
{"data": "Sample 2", "target": "RNA binding protein fox-1 homolog 2, RRM domain, GST-SBP tag (RBFOX2, Homo sapiens, UniProt O43251-10, residues 100-194)", "technique": "RNA Bind-n-Seq", "form": "RNA", "matrix": "in vitro", "concentration": "365 nM", "notes": "natural RNA segment, single round, ends assumed", "baseline": "no-protein control", "direction": "higher = stronger binding", "shared flanks, not repeated": "GGGAGUUCUACAGUCCGACGAUC … UGGAAUUCUCGGGUGCCAA"}
{"Sequence": "AUAAUUUAAAAGGUUUAGUCGCCAAAAGCAGUUAAGUGGUGCAGUAAGAUAGUUAAGUUAUUCAAAGAGUGUUACCCUCCUUGCAAGAGUAACUGAAGCACAUUGGAAAG", "RBNS enrichment (R)": 0.796}
{"Sequence": "GAAUACUUUUGCCCUUUGAUUAAAGACUCCAGUUAAAAAAAAUUUUAAUGAAGAAAGUGGAAAACAAGGAAGUCAAAGCAAGGAAACUAUGUAACAUGUAGGAAGUAGGA", "RBNS enrichment (R)": 0.677}
{"Sequence": "GCAGAGAUGCGUGCAUCCAGCAGCCCCUUCAAGACAUAAGAGGGCGGGGCGAGGUACUGGCUGCAGAGUCGCCUUAGUCCAGAACCUGACAGGCCUCUGGAGCCAGGCGA", "RBNS enrichment (R)": 0.493}
{"Sequence": "CAAAAUUACCGAAUGCCAUUUUUAAAAGUAUGCUAUAAACUAUGCUACUCUCAUACAGGGGACCCGUAUUUUAAAAUCUCCAGACUUGCUUACAUCUAGAUUAUCCAGCA", "RBNS enrichment (R)": 10.2}
{"Sequence": "AGAGGGGCCUUAAGAAGGACAGUUCAUUGUAGGAAAGCAAUUCUGUACAUGAGUUAAGCAUACUUGUUGCAUUGUCUCUGCAGAUUCUAUUUUUGUUUACAAUAUUAAAA", "RBNS enrichment (R)": 0.656}
{"Sequence": "GUGUGAUGUCAUGUUUGGUCAUUUUUCUUUUGUCCAGGGAAUGGAUAAUGACAUUCUGUCACCCACCCUUUUGUACAUUUUUCACUUUUUGUUUGUUUCAUCUUUUUCAG", "RBNS enrichment (R)": 0.426}
{"data": "Further values, each from its own experiment"}
{"Substance": "SEPTIN2 (Homo sapiens, UniProt Q15019)", "tested on": "ADAMTS1 (Homo sapiens, UniProt Q9UHI8)", "assay": "cross-linking MS", "test system": "cell fractions", "setting": "with: DSSO", "quantity": "cross-linked residues", "value": "K325 to S27"}
{"Substance": "PhoQ, residues 284 288 289 292 302 303 DDMDFR", "tested on": "PhoP, residues 12 14 15 18 19 SGWQI (Escherichia coli, UniProt P23836)", "assay": "Sort-seq, measured: YFP reporter", "test system": "E. coli", "setting": "PhoQ-PhoP variant library, with: 10 µM Mg2+", "scale": "baseline: high Mg2+ state, higher = stronger signaling", "quantity": "fold induction", "value": 1.2}
{"Substance": "ATP5PO (Homo sapiens, UniProt P48047)", "tested on": "SIPA1 (Homo sapiens, UniProt Q96FS4)", "assay": "cross-linking MS", "test system": "cell fractions", "setting": "with: DSSO", "quantity": "cross-linked residues", "value": "K199 to T545"}
{"Substance": "COPB1 (Homo sapiens, UniProt P53618)", "tested on": "COPA (Homo sapiens, UniProt P53621)", "assay": "cross-linking MS", "test system": "cell fractions", "setting": "with: DMTMM", "quantity": "cross-linked residues", "value": "K703 to E679"}
{"Substance": "ASNS (Homo sapiens, UniProt P08243)", "tested on": "MMRN1 (Homo sapiens, UniProt Q13201)", "assay": "cross-linking MS", "test system": "cell fractions", "setting": "with: DSSO", "quantity": "cross-linked residues", "value": "K244 to K340"}
{"note": "Excerpt of the above (sample 1):"}
{"Sequence": "GACGGTTTCGGGACTGGGTACGTGCTA", "fitted relative affinity [z-score]": 4.73}
{"Sequence": "ACAAATACAAGTTTCTCCTTGTGCTAG", "fitted relative affinity [z-score]": 1.01}
{"Sequence": "TTAGGTATCGACACTGGGTTTGTGCTA", "fitted relative affinity [z-score]": 0.0529}
